Published values collected from several papers.
Each line is one published result; not all experiments were run side by side.
MAPK8: Mitogen-activated protein kinase 8 (MAPK8, Homo sapiens, UniProt P45983)
Chain of UniProt P45983 (whole entry, unmodified, looked up): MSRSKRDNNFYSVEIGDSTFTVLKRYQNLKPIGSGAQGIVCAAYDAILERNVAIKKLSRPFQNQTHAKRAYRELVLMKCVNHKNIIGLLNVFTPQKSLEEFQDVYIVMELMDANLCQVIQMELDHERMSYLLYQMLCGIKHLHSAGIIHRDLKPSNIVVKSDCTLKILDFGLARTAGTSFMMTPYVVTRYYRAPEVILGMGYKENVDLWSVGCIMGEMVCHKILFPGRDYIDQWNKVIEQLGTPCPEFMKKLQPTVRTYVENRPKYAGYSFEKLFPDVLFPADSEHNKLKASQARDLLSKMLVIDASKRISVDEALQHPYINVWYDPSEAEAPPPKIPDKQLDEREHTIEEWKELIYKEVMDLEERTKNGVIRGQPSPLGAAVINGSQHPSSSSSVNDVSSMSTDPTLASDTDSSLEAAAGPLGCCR
MAPK8 C116S: Mitogen-activated protein kinase 8 (MAPK8, Homo sapiens, UniProt P45983, C116S)

CC(=O)Nc1ccc(-c2ccnc(NCC3CCC3)n2)cc1 — remaining binding (MAPK8; cell-free assay, competition with immobilised ligand; 10 µM): 0.95%
Cc1cnc2nc1Nc1cccc(c1)COC/C=C/COCc1cc(ccc1OCCN1CCOCC1)N2 — remaining signal (MAPK8; cell-free assay; 0.1 µM): 53%
CNS(=O)(=O)Nc1nccc(Cc2c(C)c3ccc(Oc4ncccc4F)cc3oc2=O)c1F — remaining binding (MAPK8; binding, competition with immobilised ligand; 10 µM): 76%
CN1CCN(Cc2ccc(-c3ccc(CO[C@H]4CCC[C@@H]4NC(=O)c4cc(-c5cnn(C)c5)cnc4N)cc3)cc2)CC1 — inhibition (MAPK8; enzyme activity, inhibitor; 0.1 µM): 6%
CN(C)c1ccc(C#CCOC(=O)[C@]2(C)C=C(C(=O)OC(C)(C)C)C(=O)CC2)cc1 — fraction bound (MAPK8; D-peptide binding, inhibitor, FP peptide displacement; 500 µM; lower is stronger displacement): 0.253
Cc1cccc(-c2ccc3nc(NC(=O)C4CCCO4)nn3c2)c1 (stereo not shown) — remaining activity (MAPK8; enzyme activity, Dundee kinase panel; 10 µM): 101%
Cc1ccc(-c2c(/C=C(\C#N)C(=O)NC(C)C)n(CCCO)c3ncnc(N)c23)cc1 — remaining binding (MAPK8; binding, competition with immobilised ligand; 1 µM): 100%
C=C1CCCCCCCCCC(CO)C1=O (stereo not shown) — remaining binding (MAPK8; cell-free assay, competition with immobilised ligand; 10 µM): 99%
COC(=O)C1(C)C=C(C(=O)OC(C)(C)C)C(=O)CC1 (stereo not shown) — fraction bound (MAPK8; D-peptide binding, inhibitor, FP peptide displacement; 250 µM; lower is stronger displacement): 0.339
NC(=O)C[C@H]1CCc2sc3ncnc(O[C@H]4CC[C@H](N5CCOCC5)CC4)c3c21 — inhibition (MAPK8; enzyme activity, inhibitor; 10 µM): -1%
CN1CCN(Cc2ccc(NC(=O)c3cccc(C#Cc4cnc(N)c5ncccc45)c3)cc2C(F)(F)F)CC1 — remaining binding (MAPK8; cell-free assay, competition with immobilised ligand; 50 nM): 51%
O=C(Cc1ccc(OCc2ccccc2)cc1)NC1(C(=O)O)CCN(C(=O)c2ccc(-c3cccc(Cl)c3)cc2)CC1 — activity vs control (MAPK8; enzyme activity, inhibitor; 10 µM): 99%
COc1cc(Nc2nccc(-c3cnn4nc(OC)ccc34)n2)cc(C(F)(F)F)c1 — remaining binding (MAPK8; binding, competition with immobilised ligand; 1 µM): 83%
Nc1ncc2c(n1)-c1c([nH]c3ccc(C4=CCOCC4)cc13)CCC2 — remaining binding (MAPK8; binding, competition with immobilised ligand; 1 µM): 76%
CC(=O)N1c2ccc(-c3ccc(CNC(=O)c4cn5cc(-c6cnc(N)nc6)nc(N6CCOCC6)c5n4)cc3)cc2CC[C@@H]1C — remaining binding (MAPK8; KINOMEscan; 10 µM): 51%
COC(=O)[C@@]1(C)C=C(C(=O)NCc2cccc(C(=O)Nc3ccc(Nc4nccc(-c5cccnc5)n4)c(C)c3)c2)C(=O)CC1 — koff (MAPK8 C116S; noncovalent binding, SPR; 100, 300, 1000 nM, two-step kinetic model): 0.0552 s⁻¹
CCn1cc(C(=O)O)c(=O)c2c(N)c(F)c(NC3CCCCC3)cc21 — inhibition (MAPK8; kinase activity; 0.1 µM, together with: ATP at Km): 1.5%
C=CC(=O)Nc1cccc(-c2cnc3[nH]cc(C(=O)NC(C)(C)C)c3n2)c1 — inhibition (MAPK8; enzyme activity, inhibitor; 0.1 µM): -1%
C=C1C[C@]2(C(=O)OC)C=C(C(=O)Nc3cccc(C(=O)Nc4ccc(Nc5nccc(-c6cccnc6)n5)c(C)c4)c3)C(=O)[C@H]1C2 — ΔΔG bond formation contribution (MAPK8; SPR two-step binding model; reversible bond formation): -3.1 kcal/mol
CNC1C[S+]2CC[S+]3CC[S+](C1)[Ru-4]321([N]=C=S)[n]2c3ccc(OC)cc3c3c4c(c5cc(F)c[n+]1c5c32)C(=O)NC4=O (stereo not shown) — remaining binding (MAPK8; KinomeScan; 0.1 µM; baseline: untreated): 100%
CC(C)(C)OC(=O)C1=C[C@@](C)(C(=O)OCC#Cc2ccncc2)CCC1=O — fraction bound (MAPK8; D-peptide binding, inhibitor, FP peptide displacement; 12.5 µM; lower is stronger displacement): 0.702
Cc1cccc(O[C@H]2CCC[C@@H](C(C)CNCc3ccncc3)C2)c1 (relative stereo) — inhibition (MAPK8; kinase activity, kinome panel screening; 10 µM): -8%
CN1CC[C@@H](COc2cnc(C#N)cc2-c2ccn3nc(NC(=O)C4CC4)cc3c2)C1 — inhibition (MAPK8; enzyme activity, inhibitor; 1 µM): 1%
Cc1cc(NC(=O)c2cccc(NC(=O)/C(C#N)=C/C(C)(C)C)c2)ccc1Nc1nccc(-c2cccnc2)n1 — koff (MAPK8 C116S; noncovalent binding, SPR; 100, 300, 1000 nM, two-step kinetic model): 0.0998 s⁻¹
CN(C)c1ccc(-n2cc(COC(=O)[C@]3(C)C=C(C(=O)OC(C)(C)C)C(=O)CC3)nn2)cc1 — fraction bound (MAPK8; D-peptide binding, inhibitor, FP peptide displacement; 6.25 µM; lower is stronger displacement): 0.84
COC(=O)[C@@]1(C)C=C(C(=O)Nc2cccc(C(=O)Nc3ccc(Nc4nccc(-c5cccnc5)n4)c(C)c3)c2)C(=O)CC1 — remaining activity (MAPK8; enzyme activity, inhibitor; 0.06097 µM, 6 h, unit not given, together with: GSH 10 mM pre-incubation; baseline: vehicle): 0.338
COC(=O)[C@@]1(Cc2ccccc2)C=C(C(=O)OC(C)(C)C)C(=O)CC1 — fraction bound (MAPK8; D-peptide binding, inhibitor, FP peptide displacement; 7.812 µM; lower is stronger displacement): 0.468
CNC(=O)C1CCN(c2cc(C)c(F)cc2NC(=O)c2ccc(-c3cc(O)ccc3C)c(C)c2)CC1 — remaining binding (MAPK8; binding, competition with immobilised ligand; 1 µM): 76%

For quick reference, copied from above:
Cc1cccc(-c2ccc3nc(NC(=O)C4CCCO4)nn3c2)c1 (stereo not shown) — remaining activity (MAPK8; enzyme activity, Dundee kinase panel; 10 µM): 101%
Cc1ccc(-c2c(/C=C(\C#N)C(=O)NC(C)C)n(CCCO)c3ncnc(N)c23)cc1 — remaining binding (MAPK8; binding, competition with immobilised ligand; 1 µM): 100%
